# Published values of several laboratories.
# Every numbered part comes from another study and shows a few of its results, in no order. Substitutions count along the parent as printed.

# Block 1 — method: DHFR PCA, deep sequencing; matrix: yeast; together with: (+)-ABA 2500 µM; baseline: wild-type fitted maximum; reading: higher = stronger binding
# Target: ABI1, truncated, D143A, DHFR fusion (Arabidopsis thaliana)
# Setting: methotrexate growth selection, single substitutions
# Starting sequence: PYL1, truncated, DHFR fusion (Arabidopsis thaliana); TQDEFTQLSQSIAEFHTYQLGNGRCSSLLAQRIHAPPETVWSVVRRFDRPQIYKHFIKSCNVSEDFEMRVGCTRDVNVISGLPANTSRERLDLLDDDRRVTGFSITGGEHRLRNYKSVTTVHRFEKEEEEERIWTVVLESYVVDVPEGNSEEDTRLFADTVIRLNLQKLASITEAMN
Substitution,relative binding score
E109D,108%
V100W,65.2%
D92Y,88.6%
L29I,94.9%
M176L,96.8%
V118M,105%
V118Q,96.5%
E151M,97.9%
D144K,88.6%
T39M,97.6%
F124M,106%
S26N,95.5%
R155G,81.7%
R46T,84.3%
I52P,78.7%
T86F,91.6%
Q31S,76.7%
D3L,98.2%

# Block 2 — method: RNA Bind-n-Seq; form: RNA; matrix: in vitro; concentration: 365 nM; baseline: no-protein control; reading: higher = stronger binding
# Target: RNA binding protein fox-1 homolog 2, RRM domain, GST-SBP tag (RBFOX2, Homo sapiens, UniProt O43251-10, residues 100-194)
# Setting: natural RNA segment, single round, ends assumed
# Target sequence (chain): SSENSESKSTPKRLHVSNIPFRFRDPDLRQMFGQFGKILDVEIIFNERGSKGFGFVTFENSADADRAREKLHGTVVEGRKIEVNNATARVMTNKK
Oligonucleotide,RBNS enrichment (R)
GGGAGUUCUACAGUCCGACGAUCACUAAGAUCGGCUGGAAAAGGGUAGGUGUUCUGAGCCCUGUACCGUGCAGGUGGUGGUGGAGCUGAUCCUGCAGGCGCGACCCUGGGACCAGGUCCUGAAUGCCCUGAAGUGGAAUUCUCGGGUGCCAA,0.327
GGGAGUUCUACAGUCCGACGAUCCCACGCCUUCCCGCUCGGCGGCAAAGGUGCUGACAUCUAUGUGCUAGGCUGCCUCAUCACGCCACUGGAGUCCACACUUGAAUUUGGGCAGCUACCACGGGUCUGCCAUGUGGAAUUCUCGGGUGCCAA,0.334
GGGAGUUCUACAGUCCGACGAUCCAGAGACUUUGGCUUUUUGUUUAAAGAUGCCUUUAUUUUAGAUCCAGGAGGGGUUUGCUCUGAAUUUGUAAACAAGUCUUCCUCGUCCUCAUGCCCCCACCCCUCUGCUGUGGAAUUCUCGGGUGCCAA,0.652
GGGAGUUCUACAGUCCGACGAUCGGAGGAGUAGGAAGACCCAGCCCUAUUUGACUGGGGAGAGGAGGAUCUGGAGUCCUUCAUGCCCAGGUCUGGAACCCAGGUUCUGACCCCAGGGCCCCACCCUGGGCUGGUGGAAUUCUCGGGUGCCAA,0.226
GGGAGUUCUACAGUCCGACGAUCAAGGACCUUCACUCUAAGAUGUUAUAUUUUUCUUAAAAAGUAACUCCUAGUAGGGGUACCACUGAAUCUGUACAGAGCCGUAAAAACUGAAGUUCUGCCUCUGAUGUAUUUGGAAUUCUCGGGUGCCAA,0.265
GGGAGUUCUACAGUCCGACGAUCAUCCUUUGCCACCUUGAGAUGAUUUAUAGGUAAUAUAAUCUACAUUUGAGUUUAUUCAGACUUAAUUUAGUGCCCUACUUGUGUUAUAAUGGAAACUUAGAAGGUCAGAAUGGAAUUCUCGGGUGCCAA,0.428
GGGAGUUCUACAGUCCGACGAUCGAAGUGGCCAGCAGCAAGUUCUGGUGACGGGACAGAGUGGCCUUGGAUGUCUUUGGUAUUUUCUGUAGUAGAAACUAAAGCAAAGACCACAAGUUUCAGAGCAUGGAGACUGGAAUUCUCGGGUGCCAA,4.81
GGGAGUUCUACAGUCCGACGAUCUUCACACAACGCCUCACCACCACCAGCCUCCAGGCAAAACCAGAUAGGAUGCACCGUUCUAGCACCUGUCCAGGGACCACCGAGCCCAGGCCUCAGCCUCCCUAAGAUGGUGGAAUUCUCGGGUGCCAA,0.626

# Block 3 — target: UBE2T UBC core domain (UniProt Q9NPD8); method: yeast two-hybrid; matrix: yeast; setting: mostly zero background; baseline: not given; reading: higher = stronger interaction
# B1: CUL9 RING domain (UniProt Q8IWT3); chain AQAVPVRPDHCPVCVSPLGCDDDLPSLCCMHYCCKSCWNEYLTTRIEQNLVLNCTCPIADCPAQPTGAFIR
# B2: UHRF2 RING domain (UniProt Q96PU4); chain CGGDPEKKCHSCSCRVCGGKHEPNMQLLCDECNVAYHIYCLNPPLDKVPEEEYWYCPSCKTDSSEVVKAGER
# B3: ARK2C RING domain (UniProt Q6ZSG1); chain EGEESDTDEKCTICLSMLEDGEDVRRLPCMHLFHQLCVDQWLAMSKKCPICRVDIETQLGAD
# B4: RNF25 RING domain (UniProt Q96BH1); chain LTDNNIPHGQCVICLYGFQEKEAFTKTPCYHYFHCHCLARYIQHMEQELKAQGQEQEQERQHATTKQKAVGVQCPVCREPLVYDLASL
# B5: RNF170 RING domain (UniProt Q96K19); chain TRQQFYTDMYCPICLHQASFPVETNCGHLFCGACIIAYWRYGSWLGAISCPICRQTVTLLLTVF
# Construct (chain): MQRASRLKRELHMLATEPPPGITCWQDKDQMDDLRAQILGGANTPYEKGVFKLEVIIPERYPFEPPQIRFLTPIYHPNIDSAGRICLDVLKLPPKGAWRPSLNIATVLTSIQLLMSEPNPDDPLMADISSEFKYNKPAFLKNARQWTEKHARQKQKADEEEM
Sequence,lacZ reporter activity
B1 (CUL9 RING domain),0
FPEHFVKSISCQICEHILADPVETNCKHVFCRVCILRCLKVMGSYCPSCRYPCFPTDLES (RAG1 RING domain (UniProt P15918)),0
QLRRLQEERTCKVCMDKEVSVVFIPCGHLVVCQECAPSLRKCPICRGIIKGTVRTF (BIRC2 RING domain (UniProt Q13490)),0
B2 (UHRF2 RING domain),0
B3 (ARK2C RING domain),0
FASPPDSNFVCSVCHGVLKRPARLPCSHIFCKKCILRWLARQKTCPCCRKEVKRKKVVH (RNF151 RING domain (UniProt Q2KHN1)),0
RLTMMWEEVTCPICLDPFVEPVSIECGHSFCQECISQVGKGGGSVCPVCRQRFLLKNLRP (TRIM21 RING domain (UniProt P19474)),0
QLQDIKEQTMCPVCLDRLKNMIFLCGHGTCQLCGDRMSECPICRKAIERRILLY (MIB1 RING domain (UniProt Q86YT6)),12600
B4 (RNF25 RING domain),0
B5 (RNF170 RING domain),0
DAIPSLSECQCGICMEILVEPVTLPCNHTLCKPCFQSTVEKASLCCPFCRRRVSSWTRYH (RNF168 RING domain (UniProt Q8IYW5)),0

# Block 4 — target: CCNE1, cyclin fold, Cln2 fusion (human); method: yeast growth competition, sequencing; matrix: yeast; setting: strong parent motif; baseline: not given; reading: higher = stronger binding
# Starting sequence: CDKN1A docking peptide (human); SKACRRLFGPVDS; partner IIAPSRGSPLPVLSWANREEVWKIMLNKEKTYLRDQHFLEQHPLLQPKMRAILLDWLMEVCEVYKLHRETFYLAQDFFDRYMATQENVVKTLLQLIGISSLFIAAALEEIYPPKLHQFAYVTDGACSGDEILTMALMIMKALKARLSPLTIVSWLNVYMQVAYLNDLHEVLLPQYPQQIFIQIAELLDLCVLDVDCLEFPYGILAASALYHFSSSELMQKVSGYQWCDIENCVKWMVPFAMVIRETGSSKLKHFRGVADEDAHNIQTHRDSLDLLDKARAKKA
Substitution,normalised enrichment score
L7K,0.129
A3M,0.955
C4G,0.236
C4D,0.59
V11Q,5.9
P10A,5.09
L7T,0.511
R6L,2.22
A3E,1.14
F8Q,0.207
F8E,-0.381
K2N,6.15
G9I,5.26
D12Y,4.12
V11Y,6.14
D12V,4.1
R5I,0.597
R6M,3.88
L7P,-0.0552

# Repeated from above (block 1):
Substitution,relative binding score
V118M,105%
V118Q,96.5%
E151M,97.9%
D144K,88.6%
T39M,97.6%
F124M,106%
S26N,95.5%
R155G,81.7%
